{"data": "Published values pooled from the literature", "note": "Each numbered part is a random draw from the data of one study; scales do not carry over between parts."}
{"data": "Set 1", "target": "Interferon regulatory factor 7, full length, phosphomimetic (IRF7, Homo sapiens, UniProt Q92985, residues 1-503, S101K/S471D/S472D/S475D/S476D/S477D/S483D/S484D/S487D)", "method": "protein-binding microarray", "form": "double-stranded DNA, one strand shown", "matrix": "in vitro", "concentration": "250 nM", "setting": "60-bp whole probe", "together with": "salmon DNA 0.4 mg/ml", "relative to": "random background probes", "reading": "higher = stronger binding", "shared flanks, not repeated": "GCCTAGCAC … GTGCTAGGTCTTGATTCGCTTGACGCTGCTG", "chain of UniProt Q92985 (whole entry, unmodified, looked up)": "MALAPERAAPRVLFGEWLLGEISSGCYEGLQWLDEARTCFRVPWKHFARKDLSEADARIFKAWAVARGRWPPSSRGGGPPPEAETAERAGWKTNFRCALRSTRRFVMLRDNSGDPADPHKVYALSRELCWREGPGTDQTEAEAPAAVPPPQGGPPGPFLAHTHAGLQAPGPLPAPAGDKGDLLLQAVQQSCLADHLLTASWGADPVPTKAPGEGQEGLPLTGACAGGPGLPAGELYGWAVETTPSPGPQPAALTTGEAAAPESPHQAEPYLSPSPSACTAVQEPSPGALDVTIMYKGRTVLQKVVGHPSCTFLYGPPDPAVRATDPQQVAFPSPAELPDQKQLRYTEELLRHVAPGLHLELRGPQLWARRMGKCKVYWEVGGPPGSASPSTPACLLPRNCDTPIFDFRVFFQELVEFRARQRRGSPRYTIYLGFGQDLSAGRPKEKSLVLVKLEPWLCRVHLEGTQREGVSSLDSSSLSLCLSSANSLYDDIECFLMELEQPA"}
{"Sequence": "TTAGATCTCAGTATCGATTG", "log fluorescence [z-score]": 1.13}
{"Sequence": "TTAGAGATCAGACTGGATTA", "log fluorescence [z-score]": -0.668}
{"Sequence": "TCCATTTTCTAAATGCCCTA", "log fluorescence [z-score]": 1.85}
{"Sequence": "GTCGGACTGCTTTTCCTGAC", "log fluorescence [z-score]": 0.613}
{"Sequence": "GACGGATTCCTTCTCCTGAC", "log fluorescence [z-score]": 0.386}
{"Sequence": "TTAGATTTCAGTTCCGATAA", "log fluorescence [z-score]": 1.04}
{"Sequence": "GTTTTTTGGTTTCTGGTTTA", "log fluorescence [z-score]": 5.73}
{"data": "Set 2", "target": "RNA binding protein fox-1 homolog 2, RRM domain, GST-SBP tag (RBFOX2, Homo sapiens, UniProt O43251-10, residues 100-194)", "method": "RNA Bind-n-Seq", "form": "RNA", "matrix": "in vitro", "concentration": "365 nM", "setting": "natural RNA segment, single round, ends assumed", "relative to": "no-protein control", "reading": "higher = stronger binding", "shared flanks, not repeated": "GGGAGUUCUACAGUCCGACGAUC … UGGAAUUCUCGGGUGCCAA", "Construct (chain)": "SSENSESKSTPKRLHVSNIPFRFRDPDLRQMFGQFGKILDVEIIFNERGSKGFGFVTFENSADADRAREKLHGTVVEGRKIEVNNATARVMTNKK"}
{"Sequence": "AAAUUUUUGUACAAUAAAAUAUCCUGGAUUUGAUCCUGAAGGAAACUAGUAAGAUCAGAUUUUUGGGUCAUGUCUGUUGUAUUUUCAGUAAUGUGAUUUCAGAUGGUCAU", "RBNS enrichment (R)": 0.351}
{"Sequence": "AACAAUGUGCCUACAUUACCAGCUGGCUUCAGUGAUUCCUCUGUGUCCCUUUUUGGUUUCUGGAAAGAUUCUUUGUCAACAUUAGUAACUGAUACAUAGAACCAAGGAGC", "RBNS enrichment (R)": 0.29}
{"Sequence": "CAGCCCAGGACACCUACGCCUCGUCCCUCGGUGCCUGGGUCCAGCCCUGUGCCCCUCUGUCCGCCUCUUCACCGCUGGCAGAGGGCAGGCUGCAUGCAGUGGCGGCUGCU", "RBNS enrichment (R)": 3.88}
{"Sequence": "UUGUAGGGCCUUGCUGCCAGGGGGCAGGGAUGCUUUCCAGCCUGCAGCAACAGAACACUUGACCUUAAAAGUCUCUUCUGGUCUUUGGAUUAGAAAAGGCUUAUGUUAGC", "RBNS enrichment (R)": 0.194}
{"Sequence": "CUCCUGGCAAGUGAGAAAGCCCUUUAUGCAGCAAUAUAUCAUAGCAGGUGGCUGGGGACACUGCAUAUUCCCUGCUGGUGGCUCGGCUCACCUGUUCUGCCUCCCUUGGC", "RBNS enrichment (R)": 0.508}
{"Sequence": "GCAAUAGCAUUUAGGGAUGCACGCACAGUGGUAAUUUAUUACUCAGUUCCGGUUAUGUUUUUCUCCAAAACCUGAACAUUUUUACUCUGUUGGCUCAUUCUAUUUUGACU", "RBNS enrichment (R)": 0.972}
{"Sequence": "CUCAGGUCUCAGGCACCAGUCCAUGGGUGGUGUUCUGUGAACCCCAUCUCUAAUGCCUUUAAAAGGCUAAAGGGGGCUGAAAGGUCCCUGUAUCAGGUGGUUAACCAAGG", "RBNS enrichment (R)": 0.389}
{"Sequence": "ACUAGCAGCCUGAACAAUGUCACUCAUAAUGGCAACUCAGACUGUUUCCCUUCCCUUUGACUGUGUGGCCUUUCCCACACAGUUACUAACAGAUAUUUCUGAGUGGUGGA", "RBNS enrichment (R)": 0.219}
{"data": "Set 3", "target": "RING finger protein unkempt homolog, zinc fingers 1-6, GST-SBP tag (UNK, Homo sapiens, UniProt Q9C0B0, residues 30-357)", "method": "RNA Bind-n-Seq", "form": "RNA", "matrix": "in vitro", "concentration": "not given", "setting": "RNA with constant flanks, human-mouse chimeric sites, ends assumed", "relative to": "input RNA pool", "reading": "higher = stronger binding", "shared flanks, not repeated": "GGGAGUUCUACAGUCCGACGAUC … CAACAGAGGAUUGAGCAUCA", "Target sequence (chain)": "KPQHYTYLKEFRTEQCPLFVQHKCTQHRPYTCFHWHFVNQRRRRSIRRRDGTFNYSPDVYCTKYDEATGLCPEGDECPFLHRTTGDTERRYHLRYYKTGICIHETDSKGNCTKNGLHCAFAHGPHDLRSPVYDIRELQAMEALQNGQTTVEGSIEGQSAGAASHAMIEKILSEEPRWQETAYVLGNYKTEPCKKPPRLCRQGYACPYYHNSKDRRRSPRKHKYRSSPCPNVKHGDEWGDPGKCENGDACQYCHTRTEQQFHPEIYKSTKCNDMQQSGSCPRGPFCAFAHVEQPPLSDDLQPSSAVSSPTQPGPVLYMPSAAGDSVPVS"}
{"Sequence": "ACCUCCCCCUCCCGCCUGCUUUUUGAACCGCUUUUUGGAAAGUUUUUGGCGUUUCUUUUCCUUCCCCAUACAAAGUGAUUACAGUUUCCCCCGCAAGGGUCUAUCGAUUCACCCUUCGGA", "bound/input enrichment [ratio]": 0.478}
{"Sequence": "GCCACCAAUUCCAGCCAACAUGACCCUUGCUGCCUACAAAGAGAAGAUGAAGGAGCUCCCACUAGUGUCCUUGUUCUGCUCCUGCUUCCUGGCCGAUCCCCUGAAUAAGUCGUCCUACAA", "bound/input enrichment [ratio]": 0.965}
{"Sequence": "UACUCAACUUUCUUGCCACAUUUUGAAUUCCAAGACAUUAUCCCUCCAGAUGACUUCCUAACGAGUGAUGAAGAGCAAGAUUCCGUUUUAUUUGGAACUAUGAGAGGACAAGUUGUUGGA", "bound/input enrichment [ratio]": 0.186}
{"Sequence": "CUGAAAAACACAGAUAUCAAAGUUGUUGACUUUGGAAGUGCAACAUAUGAUGAUGAACAUCACAGUACUUUGGUGUCUACCCGGCACUACAGAGCUCCCGAGGUCAUUUUGGCUUUAGGU", "bound/input enrichment [ratio]": 0.388}
{"Sequence": "AACAUUUUGUCAAAUUGUAUUUCCCGUGUGAAACAAGUGAACACUCUGAUACACUUCAUCUGCUUGUACAUCUGUAUGAUAGAGAAAUGUAAAUAUGUUAAUCCAAGCAAUGUGUCACUU", "bound/input enrichment [ratio]": 0.182}
{"Sequence": "GCUCUUGGCAAUGUAAUCAGCGCCUUGGGGGACAAGAGCAAGAGAGCCACCCAUGUCCCUUACAGAGACUCUAAGCUGACAAGACUCUUGCAGGAUUCCCUCGGGGGUAACAGCCAAACC", "bound/input enrichment [ratio]": 0.0914}
{"Sequence": "CACACCCUCUUCUGCGGGACCCUCAUCUUGCAGGCCCGGGCCUAUGUGGGACCGCACGUCCUGGCAGUGGUGACCCGCACAGGGUUCUGCACGGCAAAAGGGGGCCUGGUGAGCUCCAUC", "bound/input enrichment [ratio]": 0.104}
{"Sequence": "CACUCGAGGGCUGCCGUUUUCUGUUUCUCCCUGGGCUGCGGAAAGCCAGAAGAUUUUAUCUAGCUUAAACCAGGCUGCUGGUGUUCCCUCUUUUUUUCCACGAGGGUGUUUUUGGCUGCA", "bound/input enrichment [ratio]": 0.308}
{"data": "Other studies, line by line"}
{"Substance": "PhoQ, residues 284 288 289 292 302 303 ASVMEA", "target": "PhoP, residues 12 14 15 18 19 QYCSL (Escherichia coli, UniProt P23836)", "assay": "Sort-seq, measured: YFP reporter", "test system": "E. coli", "conditions": "PhoQ-PhoP variant library, together with: 10 µM Mg2+", "scale": "relative to: high Mg2+ state, higher = stronger signaling", "endpoint": "fold induction", "value": 12.6}
{"note": "For quick reference, copied from above (set 2):"}
{"Sequence": "UUGUAGGGCCUUGCUGCCAGGGGGCAGGGAUGCUUUCCAGCCUGCAGCAACAGAACACUUGACCUUAAAAGUCUCUUCUGGUCUUUGGAUUAGAAAAGGCUUAUGUUAGC", "RBNS enrichment (R)": 0.194}
{"Sequence": "CUCCUGGCAAGUGAGAAAGCCCUUUAUGCAGCAAUAUAUCAUAGCAGGUGGCUGGGGACACUGCAUAUUCCCUGCUGGUGGCUCGGCUCACCUGUUCUGCCUCCCUUGGC", "RBNS enrichment (R)": 0.508}
